Experimental data gathered from unrelated publications.
Each line is one published result; not all experiments were run side by side. “And” joins repeats or separate records; there may be more than shown. ± gives the spread as reported. ≈ marks a conversion by molar mass, not a printed value.

Compound	organism	test	system	setting	quantity	value
CCOC(=O)/C=C/[C@H](C[C@@H]1CCNC1=O)NC(=O)[C@@H](CC(=O)[C@@H](NC(=O)c1cc(C)on1)C(C)C)Cc1ccc(F)cc1	Rhinovirus B	viral replication, high-content imaging	RV-B14		IC50	6 ± 2 nM
NCCOCCO.O=C(O)C(Cl)Cl	Eclipta prostrata			15 mg/mL, 21 days, pre-emergence, greenhouse	herbicidal inhibition	0%
CC(C)C[C@H](NC(=O)[C@H](Cc1ccc(O)cc1)NC(=O)[C@@H]1CCCN1C(=O)[C@H](CCCNC(=N)N)NC(=O)[C@@H]1CCCN1C(=O)[C@H](CCCCN)NC(=O)[C@H](CC(=O)O)NC(=O)[C@@H]1CCCN1C(=O)[C@H](CCCNC(=N)N)NC(=O)C1(N)CCCCC1)C(=O)N1CCC[C@H]1C(=O)N[C@@H](CCCNC(=N)N)C(=O)N1CCC[C@H]1C(=O)N[C@@H](CCCNC(=N)N)C(=O)N1CCC[C@H]1C(=O)N1CCC[C@H]1C(=O)N[C@@H](CCCNC(=N)N)C(=O)N1CCC[C@H]1C(=O)N[C@H](C(=O)N[C@@H](CCCNC(=N)N)C(=O)N[C@@H](CSCc1ccc(CSC[C@H](NC(=O)[C@H](CCCNC(=N)N)NC(=O)[C@@H](NC(=O)[C@@H]2CCCN2C(=O)[C@H](CCCNC(=N)N)NC(=O)[C@@H]2CCCN2C(=O)[C@@H]2CCCN2C(=O)[C@H](CCCNC(=N)N)NC(=O)[C@@H]2CCCN2C(=O)[C@H](CCCNC(=N)N)NC(=O)[C@@H]2CCCN2C(=O)[C@H](CC(C)C)NC(=O)[C@H](Cc2ccc(O)cc2)NC(=O)[C@@H]2CCCN2C(=O)[C@H](CCCNC(=N)N)NC(=O)[C@@H]2CCCN2C(=O)[C@H](CCCCN)NC(=O)[C@H](CC(=O)O)NC(=O)[C@@H]2CCCN2C(=O)[C@H](CCCNC(=N)N)NC(=O)C2(N)CCCCC2)C(C)C)C(=O)NN)cc1)C(=O)NN)C(C)C	Acinetobacter baumannii	membrane disruption, propidium iodide uptake	19606	90 min, 37 °C	MDC	21.1 ± 0.6 µg/mL
Cc1cc(Cl)cc(S(C)=NC#N)c1NC(=O)c1cc(Br)nn1-c1ncccc1Cl (stereo not drawn)	Spodoptera litura		Brassica oleracea field plot	50 ppm, 168 h, 10% wettable powder	larval viability	17.1% and 20% and 14.3%
CNCc1ccc2c(c1)N(C(=O)OCc1c(F)c(F)c(F)c(F)c1F)[C@H](CNC(=N)N)[C@H]2NC(=O)C(=O)Nc1ccc(Cl)c(F)c1	HIV-1	pseudovirus infection, Env pseudovirus neutralisation	TZM-bl, clade B		IC80	112 nM
COC1C=COC2(C)Oc3c(C)c(O)c4c(c3C2=O)C2=NC3(CCN(CC(C)C)CC3)NC2=C(NC(=O)C(C)=CC=CC(C)C(O)C(C)C(O)C(C)C(OC(=O)Nc2cscn2)C1C)C4=O (stereo not drawn)	Mycobacteroides abscessus		ATCC 19977, caseum surrogate	5 d, non-replicating	MBC	0.5 µM (≈ 0.466 µg/mL)
C=C(NC(=O)c1csc(-c2nc3c(cc2O)-c2nc(cs2)C(=O)NC(C(C)O)C(=O)NC(=C(C)OC)c2nc(cs2)C(=O)NC2c4nc(cs4)C(=O)NC(COC(=O)c4c5c6c(cccc6n4O)COC(=O)C(OC4CC(C)(O)C(N(C)C)C(C)O4)C2OC5)c2nc-3cs2)n1)C(N)=O (stereo not drawn)	Streptococcus pneumoniae		ATCC 49619, immunocompromised mice, lung infection	qd dosing	lung bacterial load at ED50	5.49 log CFU/g
CC(O)CNCC(C)O.O=C(O)C(Cl)Cl (stereo not drawn)	Amaranthus retroflexus	herbicidal activity		15 mg/mL, 21 days, post-emergence greenhouse	inhibition	0%
CC1(F)CN(C(=O)Cn2c(=O)c(C(=O)NCc3ccc(Cl)cc3)cc3nc(N4CCN(CCN)C4=O)cnc32)C1	herpes simplex virus 2	viral cytopathic effect	Vero, G	120 h	EC50	760 nM
Cc1cccc2c1N(C(=O)n1ccnn1)CC2	Arabidopsis thaliana		wild type	10 µM, seedlings	hypocotyl length	10.8 mm
Cc1c(CN(C)C(=O)/C=C/c2cnc3c(c2)CC(N)C(=O)N3)oc2ccccc12 (stereo not drawn)	Klebsiella pneumoniae	broth microdilution	AR-0066		MIC	32 µg/mL (≈ 82 µM)
O=C1C(NCCc2ccc(O)cc2)=CC2=NCCc3c(Br)[nH]c1c32	Babesia divergens	parasite growth, SYBR Green		60 h, blood stage	IC50	2130 nM

A few entries again:
Compound	organism	test	system	setting	quantity	value
CC1(F)CN(C(=O)Cn2c(=O)c(C(=O)NCc3ccc(Cl)cc3)cc3nc(N4CCN(CCN)C4=O)cnc32)C1	herpes simplex virus 2	viral cytopathic effect	Vero, G	120 h	EC50	760 nM
Cc1cccc2c1N(C(=O)n1ccnn1)CC2	Arabidopsis thaliana		wild type	10 µM, seedlings	hypocotyl length	10.8 mm
